Experimental data gathered from unrelated publications.
Every numbered part comes from another study and shows a few of its results, in no order. “And” joins repeats or separate records; there may be more than shown.

Sample 1 — cell line: A-375; tested at: 100 µM; time: 60 h; quantity: viability
CC(N)CCCC(C)(C)O (stereo not shown): 76.2%
C[C@H](CCC(=O)O)[C@H]1CC[C@H]2[C@@H]3[C@@H](O)C[C@@H]4C[C@H](O)CC[C@]4(C)[C@H]3CC[C@]12C: 95%
CC(C(=O)O)c1ccc2c(c1)Cc1cccnc1O2 (stereo not shown): 25.7%

Sample 2 — effect on: AlphaScreen signal; technique: AlphaScreen counter screen; matrix: His6 peptide without bromodomain; tested at: 50 µM; setting: assay interference check; quantity: inhibition
Cc1cc(O)c2c(c1)C(=O)c1cc(O)cc(O)c1C2=O: 50.3%
O=C1Nc2ccc(Br)cc2C1=NNC(=S)NCC1CCCO1 (stereo not shown): 52.1%
NC(=O)c1ccsc1NC(=O)CSc1nnc(-c2ccco2)n1-c1ccccc1: 11.1%
COc1ccc(Nc2nccc(-c3cccc(N)c3)n2)cc1: 30.3%

Sample 3 — cell line: mouse MPNST tumor cells; technique: high-content nuclear imaging; item: cell number; tested at: 10 µM; time: 12 h; setting: mean of 2 replicates; relative to: plate mean; direction: higher = more cells; quantity: nuclei count
CO[C@@]1(NC(=O)C(C(=O)O)c2ccc(O)cc2)C(=O)N2C(C(=O)O)=C(CSc3nnnn3C)CO[C@@H]21 (stereo partly shown): 0.0413 z-score
COc1ccc(C2(O)CCC(N3CC[C@@H](NC(=O)CNC(=O)c4cccc(C(F)(F)F)c4)C3)CC2)cn1 (stereo partly shown): 3.19 z-score
Brc1c(NC2=NCCN2)ccc2nccnc12: -0.336 z-score and 1.25 z-score
COc1ccc(Cn2ccc3ccc(C(=O)NO)cc32)cc1: 1.17 z-score

Sample 4 — effect on: enzyme activity; action: inhibitor; tested at: 0.5 µM; relative to: control; quantity: remaining activity
SMILES: COc1cc2c(N3CCN(C(=O)Nc4ccc(OC(C)C)cc4)CC3)ncnc2cc1OCCCN1CCCCC1
Serine/threonine-protein kinase WNK2 (WNK2, Homo sapiens, UniProt Q9Y3S1): 97.4%
Protein kinase C delta type (PRKCD, Homo sapiens, UniProt Q05655): 101%
Mitogen-activated protein kinase 12 (MAPK12, Homo sapiens, UniProt P53778): 96.4%
RAC-gamma serine/threonine-protein kinase (AKT3, Homo sapiens, UniProt Q9Y243): 106%
Casein kinase I isoform alpha (CSNK1A1, Homo sapiens, UniProt P48729): 101%
Mitogen-activated protein kinase kinase kinase kinase 2 (MAP4K2, Homo sapiens, UniProt Q12851): 104%

Sample 5 — technique: competition with immobilised ligand; tested at: 1 µM; quantity: remaining binding
Structure (SMILES): CN1CCN(c2cnc3c(C4CCN(C(=O)c5ccc(OC(F)(F)F)cc5N)CC4)ncnc3c2)CC1
Discoidin domain-containing receptor 2 (DDR2, Homo sapiens, UniProt Q16832); cell-free assay: 100%
Epidermal growth factor receptor (EGFR, Homo sapiens, UniProt P00533, L858R/T790M); cell-free assay: 95%
Ephrin type-B receptor 2 (EPHB2, Homo sapiens, UniProt P29323); cell-free assay: 78%
Inhibitor of nuclear factor kappa-B kinase subunit epsilon (IKBKE, Homo sapiens, UniProt Q14164); cell-free assay: 98%
Receptor tyrosine-protein kinase erbB-4 (ERBB4, Homo sapiens, UniProt Q15303); cell-free assay: 79%
Calcium/calmodulin-dependent protein kinase type II subunit beta (CAMK2B, Homo sapiens, UniProt Q13554); cell-free assay: 100%
Tyrosine-protein kinase Blk (BLK, Homo sapiens, UniProt P51451); cell-free assay: 91%
cGMP-dependent protein kinase 2 (PRKG2, Homo sapiens, UniProt Q13237); cell-free assay: 77%
Myosin-IIIb (MYO3B, Homo sapiens, UniProt Q8WXR4); binding: 73%
Cyclin-dependent kinase 4, with cyclin D3 (CDK4, Homo sapiens, UniProt P11802); cell-free assay: 100%
Serine/threonine-protein kinase N2 (PKN2, Homo sapiens, UniProt Q16513); cell-free assay: 100%
Receptor-type tyrosine-protein kinase FLT3 (FLT3, Homo sapiens, UniProt P36888, D835Y); cell-free assay: 100%
Insulin receptor-related protein (INSRR, Homo sapiens, UniProt P14616); cell-free assay: 100%
Interleukin-1 receptor-associated kinase 3 (IRAK3, Homo sapiens, UniProt Q9Y616); cell-free assay: 100%
Serine/threonine-protein kinase Sgk2 (SGK2, Homo sapiens, UniProt Q9HBY8); cell-free assay: 92%
Cyclin-dependent kinase 2 (CDK2, Homo sapiens, UniProt P24941); cell-free assay: 100%
Activin receptor type-2B (ACVR2B, Homo sapiens, UniProt Q13705); binding: 100%
Tyrosine-protein kinase ABL1, phosphorylated (ABL1, Homo sapiens, UniProt P00519, Y253F); cell-free assay: 100%
Calcium/calmodulin-dependent protein kinase type IV (CAMK4, Homo sapiens, UniProt Q16566); cell-free assay: 94%
Serine/threonine-protein kinase PAK 1 (PAK1, Homo sapiens, UniProt Q13153); cell-free assay: 93%

Single results of other studies
COc1ccc([C@]23Oc4cc(OC)cc(OC)c4[C@](O)([C@H](C(=O)NCCCC(OC)OC)[C@H]2c2ccccc2)[C@H]3O)cc1
fluorescence polarization change (Eukaryotic initiation factor 4A-III (Homo sapiens, UniProt P38919); RNA clamping, fluorescence polarization; concentration not given, mean of two replicates, with: FAM-labelled poly r(AG)8 RNA): 3.5 mP

CC(C)n1cnc(-c2ccc(F)cc2)c1-c1ncc(C(=O)Nc2ccc(N3CCN(C)CC3)cc2)[nH]1
Cmax (idiopathic pulmonary fibrosis patients, plasma; 30 mg twice daily, week 0, arithmetic mean): 0.114 µg/mL

COc1ccc(-c2c(Nc3ccccn3)[nH]c3c(C4=CCCCC4)c(-c4ccccc4)nn3c2=O)cc1
dose-normalised AUC(0-inf) observed (LC-MS/MS non-compartmental; human, plasma; 200 mg twice daily, cycle 1): 11300 ng·h/mL/mg

Repeated from above (sample 5):
Interleukin-1 receptor-associated kinase 3 (IRAK3, Homo sapiens, UniProt Q9Y616); cell-free assay: 100%
Serine/threonine-protein kinase Sgk2 (SGK2, Homo sapiens, UniProt Q9HBY8); cell-free assay: 92%
Cyclin-dependent kinase 2 (CDK2, Homo sapiens, UniProt P24941); cell-free assay: 100%
Activin receptor type-2B (ACVR2B, Homo sapiens, UniProt Q13705); binding: 100%
Tyrosine-protein kinase ABL1, phosphorylated (ABL1, Homo sapiens, UniProt P00519, Y253F); cell-free assay: 100%
